Values quoted from earlier work, collected from citations in different studies.
Each line is one published result; not all experiments were run side by side. Several values in a cell are separate wells, animals, samples, runs or records.
HLA class I histocompatibility antigen, B alpha chain allele B*39:01: HLA class I histocompatibility antigen, B alpha chain, allele B*39:01 (Homo sapiens, UniProt P01889)

Substance	target or system	test	test system	conditions	measurement	value
LNTVATLY	HLA class I histocompatibility antigen, B alpha chain allele B*39:01	peptide-MHC binding	peptide		IC50	> 20000 nM
CP(=O)(O)CCCN	GABAB receptor (rat)	binding	cerebral cortex		IC50	16 nM
FHYQDPFPL	HLA class I histocompatibility antigen, B alpha chain, allele B*15:09 (Homo sapiens, UniProt P01889)	peptide-MHC binding	peptide		IC50	1 nM
Cc1c2oc3c(C)ccc(C(=O)N[C@@H]4C(=O)N[C@H](C(C)C)C(=O)N5CCC[C@H]5C(=O)N(C)CC(=O)N(C)[C@@H](C(C)C)C(=O)O[C@@H]4C)c3nc-2c(C(=O)N[C@@H]2C(=O)N[C@H](C(C)C)C(=O)N3CCC[C@H]3C(=O)N(C)CC(=O)N(C)[C@@H](C(C)C)C(=O)O[C@@H]2C)c(N)c1=O					logP	-0.1
YTNVVPLVY	HLA class I histocompatibility antigen, B alpha chain, allele B*46:01 (Homo sapiens, UniProt P01889)	peptide-MHC binding	peptide		IC50	1.39 nM
C[C@@H]1CC[C@@]2(OC1)O[C@H]1C[C@H]3[C@@H]4CC=C5C[C@@H](O[C@@H]6O[C@H](CO)[C@@H](O[C@@H]7O[C@@H](C)[C@H](O)[C@@H](O)[C@H]7O)[C@H](O)[C@H]6O[C@@H]6O[C@@H](C)[C@H](O)[C@@H](O)[C@H]6O)CC[C@]5(C)[C@H]4CC[C@]3(C)[C@H]1[C@@H]2C					logP	1.71
HHIWQNLL	HLA class I histocompatibility antigen, B alpha chain allele B*39:01	peptide-MHC binding	peptide		IC50	136 nM
[2H]C([2H])([2H])C1(C([2H])([2H])[2H])NC(=O)N(c2ccc(F)c(C(F)(F)F)c2)C1=O	Schistosoma mansoni		juvenile, infected mice	oral, 100 mg/kg single dose	worm burden reduction	62 to 100% and 86%

Excerpt of the above:
Substance	target or system	test	test system	conditions	measurement	value
FHYQDPFPL	HLA class I histocompatibility antigen, B alpha chain, allele B*15:09 (Homo sapiens, UniProt P01889)	peptide-MHC binding	peptide		IC50	1 nM
